Measured values collected from several papers.
Protocols differ between the studies behind these lines. ± marks the error that the study gave.
ESR1: Estrogen receptor (ESR1, Homo sapiens, UniProt P03372)

Amino acid sequences for entries named in this document (tags omitted). A change or cut given only in a name is not applied to a line headed by its entry. Residues count along the entry.
UniProt P03372, whole entry: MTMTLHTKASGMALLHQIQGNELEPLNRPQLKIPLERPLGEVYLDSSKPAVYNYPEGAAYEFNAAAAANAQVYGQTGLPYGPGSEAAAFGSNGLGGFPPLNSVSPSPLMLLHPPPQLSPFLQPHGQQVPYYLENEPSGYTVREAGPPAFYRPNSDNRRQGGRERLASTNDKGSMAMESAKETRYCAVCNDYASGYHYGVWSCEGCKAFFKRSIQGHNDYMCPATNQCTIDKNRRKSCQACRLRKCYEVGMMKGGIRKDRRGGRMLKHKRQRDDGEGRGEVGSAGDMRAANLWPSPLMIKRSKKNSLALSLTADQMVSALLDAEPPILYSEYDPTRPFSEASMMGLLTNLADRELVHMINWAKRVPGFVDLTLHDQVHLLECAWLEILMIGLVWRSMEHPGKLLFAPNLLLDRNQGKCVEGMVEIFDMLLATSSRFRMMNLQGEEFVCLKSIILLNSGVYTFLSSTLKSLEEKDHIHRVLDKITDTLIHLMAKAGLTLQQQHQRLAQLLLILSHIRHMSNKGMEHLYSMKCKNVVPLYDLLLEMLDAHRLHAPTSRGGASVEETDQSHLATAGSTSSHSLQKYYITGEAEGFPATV
UniProt Q8N884, whole entry: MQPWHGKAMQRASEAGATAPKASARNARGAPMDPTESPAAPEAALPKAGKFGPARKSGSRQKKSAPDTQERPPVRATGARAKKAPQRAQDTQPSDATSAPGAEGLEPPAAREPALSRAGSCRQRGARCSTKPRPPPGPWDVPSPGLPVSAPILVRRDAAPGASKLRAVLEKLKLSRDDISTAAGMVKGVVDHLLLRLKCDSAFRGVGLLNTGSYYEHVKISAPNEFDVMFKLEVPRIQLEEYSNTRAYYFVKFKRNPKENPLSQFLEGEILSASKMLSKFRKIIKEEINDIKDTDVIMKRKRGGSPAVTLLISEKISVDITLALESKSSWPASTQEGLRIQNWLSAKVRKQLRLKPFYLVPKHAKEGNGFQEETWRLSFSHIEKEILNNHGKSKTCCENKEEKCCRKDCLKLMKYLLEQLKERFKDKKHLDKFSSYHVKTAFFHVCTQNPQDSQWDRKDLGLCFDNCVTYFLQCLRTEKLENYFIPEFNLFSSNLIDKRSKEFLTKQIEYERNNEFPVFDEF
UniProt Q13164, whole entry: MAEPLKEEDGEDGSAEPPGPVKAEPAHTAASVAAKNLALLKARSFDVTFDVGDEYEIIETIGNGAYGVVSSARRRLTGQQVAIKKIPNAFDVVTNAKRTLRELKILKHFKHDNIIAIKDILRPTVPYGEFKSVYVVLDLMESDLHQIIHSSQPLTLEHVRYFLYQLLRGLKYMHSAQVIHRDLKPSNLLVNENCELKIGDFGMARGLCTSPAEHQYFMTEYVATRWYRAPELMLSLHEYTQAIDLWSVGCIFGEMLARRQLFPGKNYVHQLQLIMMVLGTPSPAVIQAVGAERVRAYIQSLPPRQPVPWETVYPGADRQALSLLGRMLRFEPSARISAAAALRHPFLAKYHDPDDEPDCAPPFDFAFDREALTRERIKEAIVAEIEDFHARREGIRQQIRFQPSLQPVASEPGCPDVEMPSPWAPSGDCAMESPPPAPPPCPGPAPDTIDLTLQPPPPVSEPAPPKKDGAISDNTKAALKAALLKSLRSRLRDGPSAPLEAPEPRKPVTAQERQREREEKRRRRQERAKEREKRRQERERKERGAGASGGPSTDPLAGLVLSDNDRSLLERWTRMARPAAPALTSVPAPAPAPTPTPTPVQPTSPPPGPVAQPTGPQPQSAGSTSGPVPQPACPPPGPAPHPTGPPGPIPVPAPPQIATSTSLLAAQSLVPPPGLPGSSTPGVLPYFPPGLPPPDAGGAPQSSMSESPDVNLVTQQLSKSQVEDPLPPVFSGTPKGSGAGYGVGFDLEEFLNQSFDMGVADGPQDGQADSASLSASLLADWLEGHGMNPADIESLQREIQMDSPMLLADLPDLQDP
UniProt P05067, whole entry, looked up: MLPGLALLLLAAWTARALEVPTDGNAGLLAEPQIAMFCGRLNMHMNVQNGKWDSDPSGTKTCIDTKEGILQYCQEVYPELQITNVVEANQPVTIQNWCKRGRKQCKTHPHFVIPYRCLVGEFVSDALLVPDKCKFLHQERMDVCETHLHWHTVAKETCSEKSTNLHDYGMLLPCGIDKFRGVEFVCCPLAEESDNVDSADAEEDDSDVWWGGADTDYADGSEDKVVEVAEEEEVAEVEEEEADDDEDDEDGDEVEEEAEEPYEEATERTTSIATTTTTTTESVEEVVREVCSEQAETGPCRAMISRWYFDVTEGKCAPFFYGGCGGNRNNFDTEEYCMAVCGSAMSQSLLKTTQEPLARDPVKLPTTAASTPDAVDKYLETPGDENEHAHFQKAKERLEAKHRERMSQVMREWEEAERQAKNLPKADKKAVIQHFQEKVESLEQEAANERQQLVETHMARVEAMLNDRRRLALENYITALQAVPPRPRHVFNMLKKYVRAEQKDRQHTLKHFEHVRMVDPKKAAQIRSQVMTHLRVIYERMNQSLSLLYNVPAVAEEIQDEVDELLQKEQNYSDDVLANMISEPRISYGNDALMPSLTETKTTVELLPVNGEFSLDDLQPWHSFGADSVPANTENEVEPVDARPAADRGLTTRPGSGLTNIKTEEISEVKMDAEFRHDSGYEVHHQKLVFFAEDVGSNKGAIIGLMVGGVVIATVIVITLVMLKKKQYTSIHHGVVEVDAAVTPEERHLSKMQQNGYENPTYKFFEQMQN
UniProt O88693, whole entry: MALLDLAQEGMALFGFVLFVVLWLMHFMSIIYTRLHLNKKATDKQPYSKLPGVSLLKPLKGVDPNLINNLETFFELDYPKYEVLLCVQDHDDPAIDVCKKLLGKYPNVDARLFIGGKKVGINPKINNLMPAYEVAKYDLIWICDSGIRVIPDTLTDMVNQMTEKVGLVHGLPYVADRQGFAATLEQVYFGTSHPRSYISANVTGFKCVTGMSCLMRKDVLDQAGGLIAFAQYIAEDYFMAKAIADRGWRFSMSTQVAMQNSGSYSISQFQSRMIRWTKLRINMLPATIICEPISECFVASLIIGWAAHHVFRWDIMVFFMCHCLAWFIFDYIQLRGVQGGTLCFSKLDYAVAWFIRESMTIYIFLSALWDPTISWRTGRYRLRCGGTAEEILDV
UniProt Q8N6T7, whole entry: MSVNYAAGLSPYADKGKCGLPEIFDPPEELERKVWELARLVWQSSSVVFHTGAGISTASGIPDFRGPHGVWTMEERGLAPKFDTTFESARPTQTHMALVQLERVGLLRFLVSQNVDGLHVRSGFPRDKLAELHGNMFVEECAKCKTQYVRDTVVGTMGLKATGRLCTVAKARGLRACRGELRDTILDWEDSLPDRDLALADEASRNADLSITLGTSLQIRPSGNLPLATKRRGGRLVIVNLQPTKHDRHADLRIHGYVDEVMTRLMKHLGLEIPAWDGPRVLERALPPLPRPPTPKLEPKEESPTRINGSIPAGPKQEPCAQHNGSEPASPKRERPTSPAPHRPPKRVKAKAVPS
UniProt P14902, whole entry: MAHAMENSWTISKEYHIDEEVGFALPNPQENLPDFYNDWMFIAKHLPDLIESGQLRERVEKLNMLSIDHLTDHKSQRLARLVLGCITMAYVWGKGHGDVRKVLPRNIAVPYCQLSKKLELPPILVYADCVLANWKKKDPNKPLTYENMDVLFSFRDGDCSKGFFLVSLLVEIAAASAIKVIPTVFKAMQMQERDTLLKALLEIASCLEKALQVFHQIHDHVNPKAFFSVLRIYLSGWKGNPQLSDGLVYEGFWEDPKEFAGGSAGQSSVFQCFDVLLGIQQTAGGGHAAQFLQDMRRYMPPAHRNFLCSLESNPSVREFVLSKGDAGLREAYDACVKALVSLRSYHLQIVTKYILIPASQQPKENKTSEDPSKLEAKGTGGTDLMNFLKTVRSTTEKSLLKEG
UniProt Q14416, 19-872 limits assumed: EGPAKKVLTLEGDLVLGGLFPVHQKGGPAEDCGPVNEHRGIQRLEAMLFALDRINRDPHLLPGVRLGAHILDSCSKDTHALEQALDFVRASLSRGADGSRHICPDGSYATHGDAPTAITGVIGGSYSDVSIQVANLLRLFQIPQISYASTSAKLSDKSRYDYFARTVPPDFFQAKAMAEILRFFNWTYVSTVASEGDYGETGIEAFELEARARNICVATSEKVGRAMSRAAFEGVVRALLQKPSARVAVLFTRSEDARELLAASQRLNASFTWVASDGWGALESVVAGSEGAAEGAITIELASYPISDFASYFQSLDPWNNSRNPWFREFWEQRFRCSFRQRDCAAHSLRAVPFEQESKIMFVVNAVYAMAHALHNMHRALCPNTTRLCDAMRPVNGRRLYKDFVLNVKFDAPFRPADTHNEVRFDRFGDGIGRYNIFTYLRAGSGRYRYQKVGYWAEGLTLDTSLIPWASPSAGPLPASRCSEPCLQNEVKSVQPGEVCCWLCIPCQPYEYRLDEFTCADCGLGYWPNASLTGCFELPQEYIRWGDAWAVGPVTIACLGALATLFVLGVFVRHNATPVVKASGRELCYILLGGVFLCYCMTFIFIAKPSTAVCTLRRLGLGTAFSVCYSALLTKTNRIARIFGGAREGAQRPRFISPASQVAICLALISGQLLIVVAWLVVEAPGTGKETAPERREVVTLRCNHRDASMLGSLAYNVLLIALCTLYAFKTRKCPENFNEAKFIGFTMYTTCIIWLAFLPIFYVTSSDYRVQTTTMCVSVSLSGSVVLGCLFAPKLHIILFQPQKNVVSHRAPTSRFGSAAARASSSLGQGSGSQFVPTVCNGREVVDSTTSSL
UniProt Q2M2I8, whole entry: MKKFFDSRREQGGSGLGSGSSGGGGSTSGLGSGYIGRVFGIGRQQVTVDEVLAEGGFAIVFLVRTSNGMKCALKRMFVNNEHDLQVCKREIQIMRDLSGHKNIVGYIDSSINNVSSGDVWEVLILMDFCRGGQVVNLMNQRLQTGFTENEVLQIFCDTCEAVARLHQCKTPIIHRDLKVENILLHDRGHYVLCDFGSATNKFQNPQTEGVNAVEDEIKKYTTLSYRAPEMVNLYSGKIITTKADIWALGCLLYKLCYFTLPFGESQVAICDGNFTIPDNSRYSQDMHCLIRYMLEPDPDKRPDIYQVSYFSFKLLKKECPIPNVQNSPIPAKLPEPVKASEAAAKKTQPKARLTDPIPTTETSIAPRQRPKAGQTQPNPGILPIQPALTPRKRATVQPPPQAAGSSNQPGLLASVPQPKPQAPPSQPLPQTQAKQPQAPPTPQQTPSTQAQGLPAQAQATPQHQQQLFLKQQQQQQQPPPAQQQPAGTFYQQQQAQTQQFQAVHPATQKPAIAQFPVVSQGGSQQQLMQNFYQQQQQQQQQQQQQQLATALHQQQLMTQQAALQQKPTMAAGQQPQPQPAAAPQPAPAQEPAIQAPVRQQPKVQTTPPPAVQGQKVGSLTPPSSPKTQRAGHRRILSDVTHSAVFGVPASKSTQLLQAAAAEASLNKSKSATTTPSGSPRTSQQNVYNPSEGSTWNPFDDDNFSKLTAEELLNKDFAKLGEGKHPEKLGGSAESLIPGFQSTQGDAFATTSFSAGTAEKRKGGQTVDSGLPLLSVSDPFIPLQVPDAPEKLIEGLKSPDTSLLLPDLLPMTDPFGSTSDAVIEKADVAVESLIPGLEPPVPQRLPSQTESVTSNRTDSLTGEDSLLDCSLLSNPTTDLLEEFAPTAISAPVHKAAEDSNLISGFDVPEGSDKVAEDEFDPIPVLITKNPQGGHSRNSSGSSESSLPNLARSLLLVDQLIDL
UniProt A0A381MCS3, 1-451: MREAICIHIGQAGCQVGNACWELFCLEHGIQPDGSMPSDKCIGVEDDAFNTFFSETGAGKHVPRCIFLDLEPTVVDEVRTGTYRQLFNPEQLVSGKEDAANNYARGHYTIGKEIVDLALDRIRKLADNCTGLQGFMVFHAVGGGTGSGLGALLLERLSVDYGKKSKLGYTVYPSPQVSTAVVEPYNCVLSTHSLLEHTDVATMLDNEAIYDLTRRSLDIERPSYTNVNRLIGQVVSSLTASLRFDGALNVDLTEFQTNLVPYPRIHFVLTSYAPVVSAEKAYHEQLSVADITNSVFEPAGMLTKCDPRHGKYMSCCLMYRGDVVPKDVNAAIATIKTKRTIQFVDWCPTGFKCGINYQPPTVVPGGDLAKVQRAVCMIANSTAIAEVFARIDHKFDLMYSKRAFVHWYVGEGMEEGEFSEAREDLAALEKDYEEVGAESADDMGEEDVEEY
UniProt A4HTR0, 1-443: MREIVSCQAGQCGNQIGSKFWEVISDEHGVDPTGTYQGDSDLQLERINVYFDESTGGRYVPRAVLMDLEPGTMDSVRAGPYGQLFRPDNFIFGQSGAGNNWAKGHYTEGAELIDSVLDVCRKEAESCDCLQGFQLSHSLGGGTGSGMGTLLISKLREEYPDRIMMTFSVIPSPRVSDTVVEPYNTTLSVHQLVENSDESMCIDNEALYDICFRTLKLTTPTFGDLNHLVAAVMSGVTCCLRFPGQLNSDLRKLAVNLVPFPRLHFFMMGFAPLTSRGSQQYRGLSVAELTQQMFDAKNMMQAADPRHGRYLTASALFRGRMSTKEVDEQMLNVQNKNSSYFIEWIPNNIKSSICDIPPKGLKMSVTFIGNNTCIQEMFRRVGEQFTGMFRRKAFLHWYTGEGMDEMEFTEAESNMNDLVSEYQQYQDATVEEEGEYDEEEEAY

SMILES	target	test	system	setting	scale	IC50 [µM]
CCOc1ccc(S(=O)(=O)NC(=O)Cc2ccc(C)cc2)cc1Br	Cyclic GMP-AMP synthase (CGAS, Homo sapiens, UniProt Q8N884)	enzyme activity, inhibitor, Kinase-Glo ATP depletion	–	25 °C, 100 nM enzyme	–	3.42
CCC[C@@H]([C@@H](CC(C)C)C(=O)N[C@@H](CCCCNC(=O)OCc1ccccc1)C(=O)Nc1nccs1)N(O)C=O	Disintegrin and metalloproteinase domain-containing protein 9 (Adam9, Mus musculus, UniProt Q61072)	EphB4-AP shedding, inhibitor, cell-based	Adam10/17 knockout mouse fibroblasts	2 h	reference: inactive E>A mutant	0.48
CC(C)Oc1cc(C(=O)N2CCC(N3CCN(C)CC3)CC2)ccc1Nc1ncc2c(n1)N(C(C)C)c1ccccc1C(=O)N2C	Mitogen-activated protein kinase 7 (MAPK7, Homo sapiens, UniProt Q13164)	kinase activity	–	–	–	0.421 ± 0.007
COc1ccc(N2CC(=O)C(c3nc(C)cs3)=C2N)c(OC)c1	tetrapod ancestral FSP1	enzyme activity, resazurin reduction	–	100 µM resazurin, with: 200 µM NADH	–	0.081
COc1ccc2[nH]cc(CCc3ccncc3)c2c1	Amyloid-beta precursor protein, amyloid-beta peptide (APP, Homo sapiens, UniProt P05067)	Aβ42 oligomerisation, ELISA	–	–	–	> 20
Clc1ccc(C2(c3ccc(-c4ccncc4)cc3)CCNCC2)cc1	Serine/threonine-protein kinase LATS2 (LATS2, Homo sapiens, UniProt Q9NRM7)	kinase activity, inhibitor, radiometric HotSpot	–	with: ATP 10 µM	–	0.007
COc1cc(N)c2ncccc2c1Cl	Methionine aminopeptidase 1 (METAP1, Homo sapiens, UniProt P53582)	enzyme activity, inhibitor	–	–	–	> 40
OCC1C(O)C(O)C(O)CN1CC(F)(F)CCCOCc1ccc(-c2ccccc2)cc1 (stereo not shown)	Ceramide glucosyltransferase (Ugcg, Mus musculus, UniProt O88693)	inhibitor, C6-NBD-ceramide in situ	RAW264.7	–	–	0.02
O=C(O)CNC(=O)c1cc(C(=O)O)cc([C@H]2CCN[C@@H]2C(=O)O)c1	AMPA receptor (rat)	binding, radioligand binding	rat cortical synaptosomes	with: [3H]AMPA	–	17
Nc1nonc1-n1cc(C(=O)N/N=C/c2cccs2)nn1	NAD-dependent protein deacylase sirtuin-6 (SIRT6, Homo sapiens, UniProt Q8N6T7)	deacetylase activity, inhibitor, Fluor de Lys	–	with: Ac-RHKK(Ac)-AMC substrate	–	35.6 ± 9.03
O=C(CSc1ccccc1C(F)(F)F)Nc1ccc2nc(SCC(=O)NC3CC3)sc2c1	ESR1	reporter gene, antagonist	HEC-1 transfected ERα luciferase reporter	–	–	6.3
Fc1ccc2[nH]cc(/C=C/c3cccnc3)c2c1	Indoleamine 2,3-dioxygenase 1 (IDO1, Homo sapiens, UniProt P14902)	enzyme activity, inhibitor	–	–	–	25.7
Cc1ccc(SCC(=O)Nc2ccc3nc(SCC(=O)NCC(C)C)sc3c2)c(C)c1	ESR1	reporter gene, antagonist	HEC-1 transfected ERα luciferase reporter	–	–	20 to 50
CN(Cc1cccnc1)c1ccc2c(c1)c(=O)c(C(N)=O)cn2-c1ccc(F)cc1	Metabotropic glutamate receptor 2 (Grm2, Rattus norvegicus, UniProt P31421)	calcium mobilization, negative allosteric modulator	–	–	–	0.201
CSc1cc(NC(=O)c2ccccn2)ccc1Cl	Metabotropic glutamate receptor 2 (GRM2, Homo sapiens, UniProt Q14416)	antagonist	–	–	–	> 30
CC(C)c1nc(-c2cccc(Nc3ncnn4ccc(CN5CCC(N)CC5)c34)c2)no1	AP2-associated protein kinase 1 (AAK1, Homo sapiens, UniProt Q2M2I8)	–	–	–	–	0.021
Cc1ccccc1C(=O)Nc1ccc(-c2nc3ccccc3[nH]2)cc1	Tyrosine-protein kinase SYK, with FCER1G (SYK, Homo sapiens, UniProt P43405)	protein binding, inhibitor, TR-FRET	–	–	–	> 100
COc1cccc(-c2cc(-n3nncc3-c3ccc(C(F)(F)F)cc3)ccc2OC)c1	Heat shock protein HSP 90-alpha, with Aha1 (HSP90AA1, Homo sapiens, UniProt P07900)	Hsp90-Aha1 interaction, inhibitor, AlphaScreen	–	–	–	4.69 ± 0.4
COC(=O)[C@@H]1C(c2nc3ccccc3o2)=Cc2cc3c(cc2[C@H]1c1cc(OC)c(OC)c(OC)c1)OCO3	Tubulin alpha/beta heterodimer (Leishmania infantum, UniProt A0A381MCS3+A4HTR0)	tubulin polymerization, inhibitor	–	37 °C, with: tubulin 1.2 mg/mL	–	1.51

For quick reference, copied from above:
SMILES	target	test	system	setting	scale	IC50 [µM]
Cc1ccccc1C(=O)Nc1ccc(-c2nc3ccccc3[nH]2)cc1	Tyrosine-protein kinase SYK, with FCER1G (SYK, Homo sapiens, UniProt P43405)	protein binding, inhibitor, TR-FRET	–	–	–	> 100
